Results collected from several papers.
Protocols differ between the studies behind these lines. Numbers after ± are the reported error.
TYMS: Thymidylate synthase (TYMS, Homo sapiens, UniProt P04818)
UniProt P04818, sequence (whole entry, looked up): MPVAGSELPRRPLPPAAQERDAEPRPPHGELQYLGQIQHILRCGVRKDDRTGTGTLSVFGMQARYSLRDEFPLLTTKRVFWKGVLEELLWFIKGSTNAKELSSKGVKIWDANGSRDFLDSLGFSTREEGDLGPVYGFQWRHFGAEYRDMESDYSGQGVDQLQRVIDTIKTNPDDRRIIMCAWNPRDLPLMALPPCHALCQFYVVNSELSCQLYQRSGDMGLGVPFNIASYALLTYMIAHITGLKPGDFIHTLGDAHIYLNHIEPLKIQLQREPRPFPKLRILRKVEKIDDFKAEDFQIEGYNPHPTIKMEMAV
Protein lin-28 homolog A: Protein lin-28 homolog A (Mus musculus, UniProt Q8K3Y3)
UniProt Q8K3Y3, sequence (whole entry, looked up): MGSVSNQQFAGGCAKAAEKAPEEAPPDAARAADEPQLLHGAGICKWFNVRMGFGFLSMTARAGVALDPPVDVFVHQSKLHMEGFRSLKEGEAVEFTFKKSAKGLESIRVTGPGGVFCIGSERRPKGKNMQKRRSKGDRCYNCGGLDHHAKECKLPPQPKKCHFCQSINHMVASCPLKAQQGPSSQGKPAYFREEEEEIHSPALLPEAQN
TGFBR1: TGF-beta receptor type-1 (TGFBR1, Homo sapiens, UniProt P36897)
UniProt P36897, sequence (whole entry, looked up): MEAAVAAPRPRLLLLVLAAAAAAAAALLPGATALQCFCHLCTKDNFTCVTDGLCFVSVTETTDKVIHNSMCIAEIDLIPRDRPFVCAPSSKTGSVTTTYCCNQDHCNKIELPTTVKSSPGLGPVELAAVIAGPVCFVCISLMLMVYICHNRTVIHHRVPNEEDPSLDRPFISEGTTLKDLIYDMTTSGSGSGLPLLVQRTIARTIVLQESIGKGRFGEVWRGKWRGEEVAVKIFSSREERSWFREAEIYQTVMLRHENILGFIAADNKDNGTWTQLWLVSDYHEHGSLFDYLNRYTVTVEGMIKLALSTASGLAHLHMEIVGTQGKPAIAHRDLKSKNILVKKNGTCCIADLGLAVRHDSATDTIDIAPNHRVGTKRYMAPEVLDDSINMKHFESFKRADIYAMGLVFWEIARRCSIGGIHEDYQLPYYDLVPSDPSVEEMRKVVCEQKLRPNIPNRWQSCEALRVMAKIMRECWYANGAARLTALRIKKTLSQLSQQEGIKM
UniProt Q9BSA9, sequence (whole entry, looked up): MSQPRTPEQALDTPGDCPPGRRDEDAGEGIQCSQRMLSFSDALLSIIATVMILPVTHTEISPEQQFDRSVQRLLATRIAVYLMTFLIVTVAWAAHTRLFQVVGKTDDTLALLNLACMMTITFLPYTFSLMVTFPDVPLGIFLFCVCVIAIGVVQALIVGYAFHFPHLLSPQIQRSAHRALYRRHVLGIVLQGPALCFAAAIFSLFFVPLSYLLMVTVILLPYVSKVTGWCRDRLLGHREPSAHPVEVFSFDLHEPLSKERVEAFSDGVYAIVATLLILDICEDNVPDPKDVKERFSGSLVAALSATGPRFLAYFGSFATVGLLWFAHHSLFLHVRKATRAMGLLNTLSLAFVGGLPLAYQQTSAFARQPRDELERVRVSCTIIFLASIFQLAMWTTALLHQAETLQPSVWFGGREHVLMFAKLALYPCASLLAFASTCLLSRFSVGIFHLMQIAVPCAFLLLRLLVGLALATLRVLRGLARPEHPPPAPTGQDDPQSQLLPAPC
UniProt F1QCV2, sequence (whole entry, looked up): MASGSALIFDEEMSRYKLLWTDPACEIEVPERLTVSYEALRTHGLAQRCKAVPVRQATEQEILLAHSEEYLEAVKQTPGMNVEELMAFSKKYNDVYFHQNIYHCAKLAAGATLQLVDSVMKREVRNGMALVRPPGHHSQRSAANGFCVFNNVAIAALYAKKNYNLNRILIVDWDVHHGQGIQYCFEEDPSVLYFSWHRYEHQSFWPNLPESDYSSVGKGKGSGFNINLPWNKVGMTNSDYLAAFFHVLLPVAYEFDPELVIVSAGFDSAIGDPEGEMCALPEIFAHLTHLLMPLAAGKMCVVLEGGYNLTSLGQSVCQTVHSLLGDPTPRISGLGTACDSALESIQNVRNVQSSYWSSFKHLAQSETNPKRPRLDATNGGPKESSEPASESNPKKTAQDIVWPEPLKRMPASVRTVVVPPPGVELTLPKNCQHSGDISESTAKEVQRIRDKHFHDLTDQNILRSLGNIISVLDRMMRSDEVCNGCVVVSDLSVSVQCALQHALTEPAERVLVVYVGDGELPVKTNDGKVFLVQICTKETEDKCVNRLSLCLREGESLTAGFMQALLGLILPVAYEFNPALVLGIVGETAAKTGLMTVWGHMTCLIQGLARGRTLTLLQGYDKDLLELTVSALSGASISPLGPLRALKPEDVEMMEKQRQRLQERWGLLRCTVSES
UniProt Q13976, sequence (whole entry, looked up): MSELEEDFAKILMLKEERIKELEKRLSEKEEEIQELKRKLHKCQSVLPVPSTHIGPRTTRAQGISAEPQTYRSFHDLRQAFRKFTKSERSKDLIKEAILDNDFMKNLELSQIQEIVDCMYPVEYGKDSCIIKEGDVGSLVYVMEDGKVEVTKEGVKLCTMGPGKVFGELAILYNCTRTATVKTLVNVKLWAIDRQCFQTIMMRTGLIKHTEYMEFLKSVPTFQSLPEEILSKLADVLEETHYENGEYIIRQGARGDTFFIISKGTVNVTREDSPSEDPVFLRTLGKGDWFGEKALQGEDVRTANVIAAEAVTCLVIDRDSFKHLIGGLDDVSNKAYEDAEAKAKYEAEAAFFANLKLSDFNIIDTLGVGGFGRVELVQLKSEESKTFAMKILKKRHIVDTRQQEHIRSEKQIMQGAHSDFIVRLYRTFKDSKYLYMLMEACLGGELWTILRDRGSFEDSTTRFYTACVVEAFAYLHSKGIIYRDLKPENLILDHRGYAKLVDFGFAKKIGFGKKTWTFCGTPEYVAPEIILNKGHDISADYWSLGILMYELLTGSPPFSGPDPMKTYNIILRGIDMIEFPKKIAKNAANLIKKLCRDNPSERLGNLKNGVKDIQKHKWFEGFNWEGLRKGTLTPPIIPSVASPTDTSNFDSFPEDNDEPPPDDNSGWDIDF
UniProt P03951, sequence (whole entry, looked up): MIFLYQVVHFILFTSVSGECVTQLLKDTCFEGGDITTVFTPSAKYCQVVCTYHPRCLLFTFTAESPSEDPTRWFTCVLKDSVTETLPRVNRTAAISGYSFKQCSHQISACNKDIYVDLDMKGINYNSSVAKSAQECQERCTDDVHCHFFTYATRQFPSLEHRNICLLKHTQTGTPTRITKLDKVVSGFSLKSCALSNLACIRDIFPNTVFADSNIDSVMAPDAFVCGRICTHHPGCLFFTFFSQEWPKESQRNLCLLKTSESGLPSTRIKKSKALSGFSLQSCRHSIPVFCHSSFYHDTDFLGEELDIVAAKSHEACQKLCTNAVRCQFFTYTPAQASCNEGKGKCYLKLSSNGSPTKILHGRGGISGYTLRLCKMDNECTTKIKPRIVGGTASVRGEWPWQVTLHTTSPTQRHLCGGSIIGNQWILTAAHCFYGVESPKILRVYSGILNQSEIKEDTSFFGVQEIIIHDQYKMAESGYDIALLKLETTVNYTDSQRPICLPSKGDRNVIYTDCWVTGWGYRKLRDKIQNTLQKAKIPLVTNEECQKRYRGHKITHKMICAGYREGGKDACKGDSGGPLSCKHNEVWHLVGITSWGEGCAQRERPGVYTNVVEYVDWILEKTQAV
UniProt P40261, sequence (whole entry, looked up): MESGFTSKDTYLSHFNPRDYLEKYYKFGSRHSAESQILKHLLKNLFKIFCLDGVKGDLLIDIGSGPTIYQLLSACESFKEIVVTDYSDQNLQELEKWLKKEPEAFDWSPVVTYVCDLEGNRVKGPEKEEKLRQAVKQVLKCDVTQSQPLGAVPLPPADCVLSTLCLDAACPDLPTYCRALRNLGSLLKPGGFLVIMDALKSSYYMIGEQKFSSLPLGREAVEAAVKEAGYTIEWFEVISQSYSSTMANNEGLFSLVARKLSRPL
UniProt P49760, sequence (whole entry, looked up): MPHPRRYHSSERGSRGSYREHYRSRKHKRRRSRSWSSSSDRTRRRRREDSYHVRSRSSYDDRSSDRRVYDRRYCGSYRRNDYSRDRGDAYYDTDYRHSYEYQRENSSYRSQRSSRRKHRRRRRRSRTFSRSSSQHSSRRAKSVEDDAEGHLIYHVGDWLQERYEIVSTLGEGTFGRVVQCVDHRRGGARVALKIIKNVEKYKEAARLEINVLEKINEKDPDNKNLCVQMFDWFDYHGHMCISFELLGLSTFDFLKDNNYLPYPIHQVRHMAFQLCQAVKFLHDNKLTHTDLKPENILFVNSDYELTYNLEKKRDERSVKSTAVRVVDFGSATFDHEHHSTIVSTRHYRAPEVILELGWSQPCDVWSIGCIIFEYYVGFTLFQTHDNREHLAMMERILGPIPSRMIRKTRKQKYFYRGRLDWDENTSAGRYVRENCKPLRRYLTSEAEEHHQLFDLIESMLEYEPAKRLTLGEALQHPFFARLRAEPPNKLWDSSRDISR
UniProt Q14916, sequence (whole entry, looked up): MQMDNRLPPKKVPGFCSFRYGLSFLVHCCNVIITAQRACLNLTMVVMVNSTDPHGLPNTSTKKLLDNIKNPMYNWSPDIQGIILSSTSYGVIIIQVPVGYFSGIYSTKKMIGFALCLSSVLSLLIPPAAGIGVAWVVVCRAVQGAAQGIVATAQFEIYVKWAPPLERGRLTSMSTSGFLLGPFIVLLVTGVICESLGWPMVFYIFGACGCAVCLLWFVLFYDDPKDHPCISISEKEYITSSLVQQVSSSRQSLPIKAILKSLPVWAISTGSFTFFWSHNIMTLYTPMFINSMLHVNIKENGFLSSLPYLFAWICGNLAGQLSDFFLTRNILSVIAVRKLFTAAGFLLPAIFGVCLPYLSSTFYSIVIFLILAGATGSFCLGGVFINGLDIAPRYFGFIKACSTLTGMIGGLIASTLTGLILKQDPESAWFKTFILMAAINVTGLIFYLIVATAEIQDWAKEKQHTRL

SMILES | target or system | assay | test system | setting | measurement | value
Nc1ccnc(-c2ccccc2)c1 | TMEM175 (Homo sapiens, UniProt Q9BSA9) | proton current, inhibitor, whole-cell patch clamp | HEK293T | pH 4.5, no K+ | IC50 | ~30 µM
Cn1c(=O)c2c(ncn2C)n(C)c1=O | Sodium-dependent phosphate transport protein 1 (SLC17A1, Homo sapiens, UniProt Q14916) | urate uptake | Xenopus oocytes | 1 h, pH 7.4, nicotinate-preloaded oocytes, added: 40 µM [14C]urate | IC50 | 680 µM
C#CCN(Cc1cnc2nc(N)nc(N)c2n1)c1ccc(C(=O)N2CCC(C(=O)OC)CC2)cc1 | TYMS | inhibitor | – | – | IC50 | > 100 µM
O=C1OC2COC(=O)C2C=C1NC(=O)c1ccc(Cl)cc1 (stereo not shown) | Protein lin-28 homolog A | – | – | – | IC50 | 8.1 µM
Fc1ccc(-c2nc(-c3c(Cl)cccc3Cl)[nH]c2-c2ccncc2)cc1 | TGFBR1 | binding, LanthaScreen kinase binding | – | – | IC50 | 0.0046 ± 0.001 µM
Cc1cnn(Cc2ccc(Cn3cc(C(=O)NCc4ccc5c(N)nccc5c4)cn3)cc2)c1 | F11 (Homo sapiens, UniProt P03951) | – | – | – | IC50 | > 40 µM
NC(=O)NO | MT-CYB/UQCRFS1 (Homo sapiens, UniProt P00156+P47985) | oxygen consumption rate, inhibitor, Seahorse XF-96 | HCT-116 | complex III-driven | IC50 | > 3000 µM
c1coc(CNc2ncnc3[nH]cnc23)c1 | Gelsolin, N184K peptide (GSN, Homo sapiens, UniProt P06396) | amyloid aggregation, inhibitor, ThT fluorescence | – | 12 h, 37 °C | IC50 | 23 ± 1.7 µM
Nc1nc(/C(=C/CC(=O)O)C(=O)N[C@@H]2C(=O)N3C(C(=O)O)=CCS[C@H]23)cs1 | THP-1 | pyroptotic LDH release | – | 2 µM, 40 min, added: LPS then nigericin | inhibition | 0.119%
Cc1[nH]c2ccccc2c1CCNCc1ccc(/C=C/C(=O)NO)cc1 | hdac10 (Danio rerio, UniProt F1QCV2) | – | – | – | IC50 | 0.05 ± 0.007 µM
CCNc1ccc(C(N)=O)cn1 | NNMT (Homo sapiens, UniProt P40261) | enzyme activity, inhibitor | – | – | IC50 | > 25.1 µM
Cc1cccc(-c2nc(-c3ccc(NS(C)(=O)=O)cc3)[nH]c2-c2ccncc2)c1 | TGFBR1 | binding, LanthaScreen kinase binding | – | – | IC50 | 1.09 ± 0.225 µM
Cc1cc(CSC(=N)N)c(C)cc1CSC(=N)N | Protein lin-28 homolog A | – | – | – | IC50 | 14.1 µM
CC[C@@H]1[C@H](F)C(=O)N[C@@H]1COc1nccc2cc(C(N)=O)c(OC)cc12 | CLK2 (Homo sapiens, UniProt P49760) | ATP-site probe binding, ActivX profiling | THP-1 cell lysate | Lys2 site | IC50 | > 5 µM
CCN(Cc1cnc2nc(N)nc(N)c2n1)c1ccc(C(=O)N2CCC(C(=O)OC)CC2)cc1 | TYMS | inhibitor | – | – | IC50 | > 100 µM
Cc1cccc(-c2nc(-c3ccc(C#N)cc3)[nH]c2-c2ccncc2)c1 | TGFBR1 | binding, LanthaScreen kinase binding | – | – | IC50 | 1.57 ± 0.394 µM
COc1ccc(CNC(=O)c2ccc(CNCc3cnc4nc(N)nc(N)c4n3)cc2)cc1 | TYMS | inhibitor | – | – | IC50 | > 100 µM
Fc1ccc(-c2nc(-c3cccnc3)[nH]c2-c2ccncc2)cc1 | TGFBR1 | binding, LanthaScreen kinase binding | – | – | IC50 | 2.3 ± 0.0356 µM
CCCC(C)N1CCC(N(Cc2ccccc2NC(=O)CCl)C(=O)Nc2cccc(C(F)(F)F)c2)CC1 (stereo not shown) | DCN1-like protein 1, PONY domain (Homo sapiens, UniProt Q96GG9) | binding, inhibitor, TR-FRET | – | 24 h, racemic mixture | IC50 | 0.256 ± 0.062 µM
CN1CCN(c2ccc(Nc3ncc4cc(C#N)c(=O)n(C5CCCC5)c4n3)cc2)CC1 | cGMP-dependent protein kinase 1, isoform beta (PRKG1, Homo sapiens, UniProt Q13976) | – | – | – | IC50 | > 10 µM
CC(C)OC(=O)CCC/C=C\C[C@@H]1[C@@H](CC[C@@H](O)CCc2ccccc2)[C@H](O)C[C@@H]1O | THP-1 | pyroptotic LDH release | – | 2 µM, 40 min, added: LPS then nigericin | inhibition | 2.7%
NC(=O)c1cccc2c1O/C(=C\c1ccc(C(=O)NCc3nc4ccccc4[nH]3)s1)C2=O | PARP1 (Homo sapiens, UniProt P09874) | inhibitor | – | – | IC50 | 0.12 µM

Repeated from above:
SMILES | target or system | assay | test system | setting | measurement | value
Nc1ccnc(-c2ccccc2)c1 | TMEM175 (Homo sapiens, UniProt Q9BSA9) | proton current, inhibitor, whole-cell patch clamp | HEK293T | pH 4.5, no K+ | IC50 | ~30 µM
Cn1c(=O)c2c(ncn2C)n(C)c1=O | Sodium-dependent phosphate transport protein 1 (SLC17A1, Homo sapiens, UniProt Q14916) | urate uptake | Xenopus oocytes | 1 h, pH 7.4, nicotinate-preloaded oocytes, added: 40 µM [14C]urate | IC50 | 680 µM
